Results of several laboratories.
Several values in a cell are separate wells, animals, samples, runs or records. ± gives the spread as reported. In brackets after ≈: the same amount, converted by molar mass.

Chains of the proteins cited; added tags and fusions are not shown.
UniProt P35462, whole entry: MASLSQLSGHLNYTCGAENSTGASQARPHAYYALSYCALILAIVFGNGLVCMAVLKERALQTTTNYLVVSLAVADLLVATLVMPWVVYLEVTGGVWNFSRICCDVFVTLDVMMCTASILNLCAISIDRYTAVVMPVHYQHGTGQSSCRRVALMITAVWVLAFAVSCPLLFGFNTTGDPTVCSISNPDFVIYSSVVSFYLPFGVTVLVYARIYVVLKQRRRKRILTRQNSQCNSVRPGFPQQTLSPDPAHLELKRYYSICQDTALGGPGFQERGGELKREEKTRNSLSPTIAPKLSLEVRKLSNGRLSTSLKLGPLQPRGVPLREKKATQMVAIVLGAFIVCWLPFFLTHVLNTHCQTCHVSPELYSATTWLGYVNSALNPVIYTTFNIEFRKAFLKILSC

O=S(=O)(O)c1ccc2cc(S(=O)(=O)O)ccc2c1  MIC of ampicillin (Escherichia coli; bacterial growth, broth microdilution; expressing OXA-48; 8 µg/mL, together with: ampicillin; MIC of ampicillin): 256 µg/mL
[11CH3]Nc1ccc(C(=O)C2CCN(C3Cc4ccccc4CC3O)CC2)cc1 (single isomer, unassigned)  radioactivity uptake (Sprague-Dawley rat, spleen; intravenous, dose not given, 5 min): 1.19 %ID/g
NC[C@@H](NC[C@@H]1CCCN1C[C@@H](CO)NC[C@@H](NCCc1ccc(Cl)c(Cl)c1)c1ccccc1)c1ccccc1  IC90 (Klebsiella pneumoniae; bacterial growth; compound alone): > 24 µM
CN1CC[C@]23c4c5ccc(O)c4O[C@H]2c2ncc(-c4ccc(Cl)cc4)cc2C[C@@]3(OCCCc2ccccc2)[C@H]1C5  days to zero efficacy (tolerance; CD-1 mouse, HIV neuropathy; sc, 1 mg/kg twice daily, 3 days): 2.1 days
CO[C@H]1[C@H](O[C@H]([C@H]2O[C@@H](n3ccc(=O)[nH]c3=O)[C@H](O)[C@@H]2O)[C@H](NCCCNC(=O)[C@@H](NC(=O)[C@@H](NC(=O)N[C@H](C(=O)O)C(C)C)[C@@H]2CCNC(=N)N2)[C@@H](OC(=O)CCCCCCCCCCCCNC(=N)N)C(C)C)C(N)=O)O[C@H](CN)[C@H]1O  MIC90 (Mycolicibacterium smegmatis; alamar blue; ATCC 607; nutrient-deficient medium): 0.08 ± 0.026 µg/mL (≈ 0.0668 µM)
CC(C)C[C@@H](NC(=O)[C@H](NC(=O)[C@H]1CCCN1)[C@H](C)O)C(=O)N[C@H](Cc1c[nH]cn1)C(=O)N[C@@H](C(=O)N[C@H](Cc1c[nH]cn1)C(=O)N[C@H](CC(N)=O)C(=O)N[C@H](CCCNC(=N)N)C(=O)N[C@H](CCCNC(=N)N)C(=O)N[C@H](CCCNC(=N)N)C(=O)N[C@H](CCCNC(=N)N)C(=O)N[C@H](CCCNC(=N)N)C(N)=O)[C@H](C)O  incidence of adverse events (phase I single ascending dose; healthy male subjects; 12 mg, total events): 16.7%
N#Cc1ccc(S(=O)(=O)Nc2cccc(C(=O)NC3CCN(c4ncnc5[nH]cnc45)CC3)c2)cc1  inhibition (HCoV-OC43; viral infection; concentration not given): 70.6%
NC[C@@H](NC[C@@H]1CCCN1C[C@@H](CO)NC[C@@H](NCCC1CC2CCC1C2)c1ccccc1)c1ccccc1 (stereo partly drawn)  potentiation of amikacin (Acinetobacter baumannii; bacterial growth; 24 µM, fold shift of IC50, together with: amikacin): 4.6 fold
O=c1c2ccc(Oc3ccc(OC(F)(F)F)cc3)cc2[nH]c2cc(F)cc(F)c12  EC50 ratio (Toxoplasma gondii; parasite growth; T222P mutant; baseline: T222P over RH strain): 1.51
NC[C@@H](NC[C@@H]1CCCN1C[C@@H](CO)NC[C@@H](NCCC12CC3CC(CC(C3)C1)C2)c1ccccc1)c1ccccc1  potentiation of amikacin (Acinetobacter baumannii; bacterial growth; 8 µM, fold shift of IC50, together with: amikacin): 1.9 fold
O=S(=O)(O)c1ccc2c(c1)Cc1cc(S(=O)(=O)O)ccc1-2  MIC of ampicillin (Escherichia coli; bacterial growth, broth microdilution; expressing OXA-48; 8 µg/mL, together with: ampicillin; MIC of ampicillin): 256 µg/mL
COc1ccc(CN[C@@H]2CO[C@H](C(c3ccccc3)c3ccccc3)C[C@H]2O)cc1  inhibition (DRD3 (Homo sapiens, UniProt P35462); radioligand binding; 10 µM, together with: [3H]N-methylspiperone): 15.3%
NCc1ccc(-c2ncc(OCC3CCNCC3)nc2-c2ccc(-c3ccoc3)cc2)cc1  reduction in viral RNA (Zika virus; ZIKV-FLR, C57BL/6 mice, interferon receptor knockout, plasma; intraperitoneal, 15 mg/kg every 12 h, 24 h, started 1 h before infection): 96%
CCCCCCCCCCCCNC(=O)N[C@H](C(=O)N[C@H]1/C=C/CCNC(=O)/C=C/[C@H](C)NC1=O)C(C)C  Ki (PSMB5 (Homo sapiens, UniProt P28074); chymotrypsin-like activity, inhibitor, Proteasome-Glo; MM.1R; 24 h): 0.0268 ± 0.0052 µM
CCc1nc(N)nc(N)c1C#CCc1cc(-c2ccncc2)ccc1OC  MIC (Klebsiella pneumoniae; ATCC 10031; together with: thymidine 20 µg/mL): > 20 µg/mL
C=CC(=O)Nc1cc(-n2c(=O)ccc3cnc4ccc(-c5cn[nH]c5)cc4c32)ccc1C  GI50 (TMD8; cell growth; 72 h): 0.31 µM
O=C(NC1CCN(c2ncnc3[nH]cnc23)CC1)c1cccc(NS(=O)(=O)c2ccc([N+](=O)[O-])cc2)c1  inhibition (HCoV-OC43; viral infection; concentration not given): 24.8%
C[C@H](CS)C(=O)N[C@@H](Cc1c[nH]c2ccccc12)C(=O)O  MIC of meropenem (Enterobacter aerogenes; VIM-1 producing; 50 µM, together with: meropenem): 16 µg/mL
COc1cc(-c2ccccc2)cc(C(C)C#Cc2c(C)nc(N)nc2N)c1 (racemic)  MIC (Candida glabrata; Alamar Blue): 11.1 µg/mL (≈ 31 µM)
CC1(C)CC[C@]2(C(=O)O)CC[C@]3(C)C(=CC[C@@H]4[C@@]5(C)CC[C@H](OC(=O)NCc6ccccc6)C(C)(C)[C@@H]5CC[C@]43C)[C@@H]2C1  Tmax (C57BL/6 mice, brain; intraperitoneal, 85 µmol/kg): 4 h
CO[C@H]1[C@H](O[C@H]([C@H]2O[C@@H](n3ccc(=O)[nH]c3=O)[C@H](O)[C@@H]2O)[C@H](NCCCNC(=O)[C@@H](NC(=O)[C@@H](NC(=O)N[C@H](C(=O)O)C(C)C)[C@@H]2CCNC(=N)N2)[C@@H](OC(=O)CCCCCCCCCCCCN(O)C(=N)N)C(C)C)C(N)=O)O[C@H](CN)[C@H]1O  MIC90 (Bacillus subtilis; alamar blue; ATCC 6051): 6.4 ± 0.081 µg/mL (≈ 5.27 µM)
CCc1nc(N)nc(N)c1C#C[C@@H](C)c1cc(OC)cc(-c2ccncc2)c1  MIC (Staphylococcus aureus; broth microdilution; F98Y DHFR mutant; 18 h, 37 °C): 0.625 µg/mL (≈ 1.67 µM)
CC(CCN[C@H](CN[C@H](CO)CN1CCC[C@H]1CN[C@H](CN)c1ccccc1)c1ccccc1)c1ccccc1 (stereo partly drawn)  potentiation of amikacin (Klebsiella pneumoniae; bacterial growth; 16 µM, fold shift of IC50, together with: amikacin): 2.7 fold
O=c1[nH]c2sc3c(c2c(=O)n1O)CCC3  EC50 (HIV-1; viral replication, MAGI; P4/R5): 22 ± 4 µM
O=C(O)c1ccc(-c2cccc(C(=O)O)c2)cc1  MIC of ampicillin (Escherichia coli; bacterial growth, broth microdilution; expressing OXA-48; 128 µg/mL, together with: ampicillin; MIC of ampicillin): 128 µg/mL
NCCNCCSc1ccccc1  pKa (spectrophotometry; pH 5.6): 5.74
O=S(=O)(O)c1ccc(-c2ccc(S(=O)(=O)O)cc2)cc1  MIC of ampicillin (Escherichia coli; bacterial growth, broth microdilution; expressing OXA-48; 128 µg/mL, together with: ampicillin; MIC of ampicillin): 64 µg/mL
NC[C@@H](NC[C@@H]1CCCN1C[C@@H](CO)NC[C@@H](NCCc1ccc(-c2ccccc2)cc1)c1ccccc1)c1ccccc1  IC50 (Escherichia coli; bacterial growth; compound alone): 16 µM and 16.2 µM
Nc1cc(S(=O)(=O)O)cc2cc(S(=O)(=O)O)cc(O)c12  MIC of ampicillin (Escherichia coli; bacterial growth, broth microdilution; expressing OXA-48; 4 µg/mL, together with: ampicillin; MIC of ampicillin): 512 µg/mL
COCCCNc1cc(C(=O)NC2CC3CCC(C2)N3c2ccc(C(=O)NCc3ccccc3)cn2)ccc1C(N)=O (stereo not drawn)  EC50 (Plasmodium falciparum; SYBR Green I; 3D7; 72 h, asexual blood stage): 0.73 ± 0.15 µM

Some of these lines once more:
N#Cc1ccc(S(=O)(=O)Nc2cccc(C(=O)NC3CCN(c4ncnc5[nH]cnc45)CC3)c2)cc1  inhibition (HCoV-OC43; viral infection; concentration not given): 70.6%
NCCNCCSc1ccccc1  pKa (spectrophotometry; pH 5.6): 5.74
Nc1cc(S(=O)(=O)O)cc2cc(S(=O)(=O)O)cc(O)c12  MIC of ampicillin (Escherichia coli; bacterial growth, broth microdilution; expressing OXA-48; 4 µg/mL, together with: ampicillin; MIC of ampicillin): 512 µg/mL
